# Results gathered from unrelated publications.
# Each numbered part is a random draw from the data of one study; scales do not carry over between parts. Several values in a cell are separate wells, animals, samples, runs or records.
# Chain of UniProt P07949 (whole entry, unmodified, looked up): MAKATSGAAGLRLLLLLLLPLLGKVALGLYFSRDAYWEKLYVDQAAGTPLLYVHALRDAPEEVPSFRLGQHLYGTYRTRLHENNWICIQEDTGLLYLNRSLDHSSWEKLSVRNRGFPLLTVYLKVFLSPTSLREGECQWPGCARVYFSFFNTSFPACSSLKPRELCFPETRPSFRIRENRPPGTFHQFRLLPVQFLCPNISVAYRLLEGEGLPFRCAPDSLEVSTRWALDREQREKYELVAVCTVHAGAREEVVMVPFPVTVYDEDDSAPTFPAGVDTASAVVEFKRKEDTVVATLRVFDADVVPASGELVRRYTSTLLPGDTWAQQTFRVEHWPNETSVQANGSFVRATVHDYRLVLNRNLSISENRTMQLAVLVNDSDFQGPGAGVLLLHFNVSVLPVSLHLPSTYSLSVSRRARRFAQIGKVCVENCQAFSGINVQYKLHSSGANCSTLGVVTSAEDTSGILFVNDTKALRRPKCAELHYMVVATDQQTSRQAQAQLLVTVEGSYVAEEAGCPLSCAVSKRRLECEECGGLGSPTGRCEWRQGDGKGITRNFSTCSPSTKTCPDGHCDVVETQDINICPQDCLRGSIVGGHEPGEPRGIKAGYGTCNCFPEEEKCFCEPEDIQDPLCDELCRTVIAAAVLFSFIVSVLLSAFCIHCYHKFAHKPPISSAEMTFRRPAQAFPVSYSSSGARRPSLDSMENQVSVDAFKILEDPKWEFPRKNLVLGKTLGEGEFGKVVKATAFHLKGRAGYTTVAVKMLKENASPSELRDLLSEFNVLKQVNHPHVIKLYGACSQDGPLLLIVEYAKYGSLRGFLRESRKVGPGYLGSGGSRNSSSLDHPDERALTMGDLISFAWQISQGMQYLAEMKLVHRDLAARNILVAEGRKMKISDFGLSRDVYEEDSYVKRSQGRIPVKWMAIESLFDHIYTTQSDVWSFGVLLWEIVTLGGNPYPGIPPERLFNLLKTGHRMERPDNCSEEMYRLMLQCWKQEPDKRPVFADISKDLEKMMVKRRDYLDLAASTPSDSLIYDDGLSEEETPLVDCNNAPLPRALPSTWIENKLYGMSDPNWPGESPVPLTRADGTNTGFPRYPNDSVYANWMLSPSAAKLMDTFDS
# Chain of UniProt P10721 (whole entry, unmodified, looked up): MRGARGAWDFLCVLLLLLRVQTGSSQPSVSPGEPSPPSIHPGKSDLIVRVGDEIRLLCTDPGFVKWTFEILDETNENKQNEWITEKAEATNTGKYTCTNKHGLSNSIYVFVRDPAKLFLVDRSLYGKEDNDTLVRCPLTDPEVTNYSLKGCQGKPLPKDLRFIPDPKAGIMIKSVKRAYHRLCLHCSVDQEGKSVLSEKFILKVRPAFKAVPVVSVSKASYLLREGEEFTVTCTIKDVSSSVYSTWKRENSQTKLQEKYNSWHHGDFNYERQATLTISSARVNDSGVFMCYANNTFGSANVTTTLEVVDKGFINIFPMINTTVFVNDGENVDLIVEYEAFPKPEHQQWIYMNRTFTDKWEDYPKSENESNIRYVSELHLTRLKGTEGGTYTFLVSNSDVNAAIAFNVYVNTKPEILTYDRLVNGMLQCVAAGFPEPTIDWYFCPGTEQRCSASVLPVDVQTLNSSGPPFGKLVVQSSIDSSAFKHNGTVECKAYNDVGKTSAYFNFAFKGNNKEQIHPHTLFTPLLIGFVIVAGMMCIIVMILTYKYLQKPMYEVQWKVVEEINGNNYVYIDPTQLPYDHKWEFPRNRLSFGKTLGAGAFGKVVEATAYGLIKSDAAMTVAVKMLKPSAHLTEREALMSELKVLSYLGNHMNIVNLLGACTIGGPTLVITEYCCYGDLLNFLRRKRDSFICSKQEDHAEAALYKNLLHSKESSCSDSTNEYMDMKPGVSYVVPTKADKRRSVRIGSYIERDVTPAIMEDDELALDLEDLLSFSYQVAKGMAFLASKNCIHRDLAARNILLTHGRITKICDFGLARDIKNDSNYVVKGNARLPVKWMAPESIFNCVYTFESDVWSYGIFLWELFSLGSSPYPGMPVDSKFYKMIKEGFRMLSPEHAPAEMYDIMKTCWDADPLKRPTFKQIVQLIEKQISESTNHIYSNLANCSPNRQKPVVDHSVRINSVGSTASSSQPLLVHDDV
# Chain of UniProt Q9BYT3 (whole entry, looked up): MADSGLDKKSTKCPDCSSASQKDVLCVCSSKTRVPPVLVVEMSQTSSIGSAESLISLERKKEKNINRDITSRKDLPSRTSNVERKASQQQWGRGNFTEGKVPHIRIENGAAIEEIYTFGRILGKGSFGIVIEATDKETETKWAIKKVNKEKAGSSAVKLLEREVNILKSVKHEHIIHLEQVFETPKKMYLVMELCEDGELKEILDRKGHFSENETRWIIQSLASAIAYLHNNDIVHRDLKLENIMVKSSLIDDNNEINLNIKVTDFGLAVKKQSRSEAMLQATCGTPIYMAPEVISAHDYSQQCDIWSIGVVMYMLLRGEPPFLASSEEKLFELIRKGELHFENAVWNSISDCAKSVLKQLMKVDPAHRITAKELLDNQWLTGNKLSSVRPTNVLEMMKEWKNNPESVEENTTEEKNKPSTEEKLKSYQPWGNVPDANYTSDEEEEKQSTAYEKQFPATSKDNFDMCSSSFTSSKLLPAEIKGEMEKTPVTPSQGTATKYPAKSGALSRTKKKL

# Sample 1 — action: degrader
# SMILES: O=C1CCC(N2Cc3cc(C4CCN(Cc5ccccc5)CC4)ccc3C2=O)C(=O)N1 (centres unmarked)
# CRBN/Zinc finger protein Helios: CRBN/Zinc finger protein Helios (Homo sapiens, UniProt Q96SW2+Q9UKS7)
# Chain of UniProt Q96SW2 (whole entry, looked up): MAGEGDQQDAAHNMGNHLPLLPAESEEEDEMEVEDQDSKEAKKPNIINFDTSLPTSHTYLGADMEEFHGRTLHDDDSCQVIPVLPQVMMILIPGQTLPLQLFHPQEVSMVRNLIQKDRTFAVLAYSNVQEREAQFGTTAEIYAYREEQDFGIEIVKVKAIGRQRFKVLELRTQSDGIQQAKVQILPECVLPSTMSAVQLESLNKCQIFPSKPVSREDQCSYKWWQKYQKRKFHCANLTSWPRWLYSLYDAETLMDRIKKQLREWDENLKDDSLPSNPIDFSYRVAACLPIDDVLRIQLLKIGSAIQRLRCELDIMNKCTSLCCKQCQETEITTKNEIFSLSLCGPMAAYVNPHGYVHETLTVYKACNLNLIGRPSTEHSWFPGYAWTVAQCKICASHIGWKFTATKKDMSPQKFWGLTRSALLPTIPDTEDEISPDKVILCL
# Chain of UniProt Q9UKS7 (whole entry, looked up): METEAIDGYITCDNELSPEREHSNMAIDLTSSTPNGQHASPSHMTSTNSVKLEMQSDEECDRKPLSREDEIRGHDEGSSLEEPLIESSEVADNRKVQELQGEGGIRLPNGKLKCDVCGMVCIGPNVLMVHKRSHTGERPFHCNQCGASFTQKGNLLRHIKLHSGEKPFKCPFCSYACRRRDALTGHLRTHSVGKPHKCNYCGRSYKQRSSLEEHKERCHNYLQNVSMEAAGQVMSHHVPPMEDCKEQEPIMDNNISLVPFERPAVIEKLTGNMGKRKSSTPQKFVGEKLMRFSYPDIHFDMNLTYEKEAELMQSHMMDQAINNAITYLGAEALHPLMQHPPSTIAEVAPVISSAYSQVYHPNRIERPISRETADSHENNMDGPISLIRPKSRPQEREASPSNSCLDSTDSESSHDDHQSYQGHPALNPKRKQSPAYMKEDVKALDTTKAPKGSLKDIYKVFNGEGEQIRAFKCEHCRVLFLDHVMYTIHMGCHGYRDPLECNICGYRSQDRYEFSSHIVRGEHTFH
# DNA-binding protein Ikaros: DNA-binding protein Ikaros (Homo sapiens, UniProt Q13422)
# Chain of UniProt Q13422 (whole entry, looked up): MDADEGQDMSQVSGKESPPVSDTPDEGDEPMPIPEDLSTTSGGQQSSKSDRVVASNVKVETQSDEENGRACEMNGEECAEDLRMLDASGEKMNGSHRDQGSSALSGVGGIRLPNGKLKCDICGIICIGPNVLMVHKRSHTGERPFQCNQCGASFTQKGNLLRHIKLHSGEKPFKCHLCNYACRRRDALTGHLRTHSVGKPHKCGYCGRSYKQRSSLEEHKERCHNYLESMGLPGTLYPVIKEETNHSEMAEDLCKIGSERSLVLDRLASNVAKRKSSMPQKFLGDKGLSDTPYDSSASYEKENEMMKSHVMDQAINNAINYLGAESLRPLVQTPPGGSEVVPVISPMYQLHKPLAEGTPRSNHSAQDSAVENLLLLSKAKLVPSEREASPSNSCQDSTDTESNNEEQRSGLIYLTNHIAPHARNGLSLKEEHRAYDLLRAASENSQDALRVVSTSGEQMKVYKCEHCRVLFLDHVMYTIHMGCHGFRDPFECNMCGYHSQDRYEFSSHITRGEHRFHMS
# CSNK1A1: Casein kinase I isoform alpha (CSNK1A1, Homo sapiens, UniProt P48729)
# Chain of UniProt P48729 (whole entry, looked up): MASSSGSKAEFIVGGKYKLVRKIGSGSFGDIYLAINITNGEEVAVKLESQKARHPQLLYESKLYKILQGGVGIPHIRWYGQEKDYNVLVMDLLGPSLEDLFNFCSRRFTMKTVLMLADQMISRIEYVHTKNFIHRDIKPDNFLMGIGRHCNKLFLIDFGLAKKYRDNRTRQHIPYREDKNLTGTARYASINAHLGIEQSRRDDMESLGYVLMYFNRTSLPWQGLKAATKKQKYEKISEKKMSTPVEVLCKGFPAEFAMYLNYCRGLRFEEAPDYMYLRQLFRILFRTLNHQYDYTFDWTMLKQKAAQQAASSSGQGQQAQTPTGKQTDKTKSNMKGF
# Zinc finger protein Aiolos: Zinc finger protein Aiolos (Homo sapiens, UniProt Q9UKT9)
# Chain of UniProt Q9UKT9 (whole entry, looked up): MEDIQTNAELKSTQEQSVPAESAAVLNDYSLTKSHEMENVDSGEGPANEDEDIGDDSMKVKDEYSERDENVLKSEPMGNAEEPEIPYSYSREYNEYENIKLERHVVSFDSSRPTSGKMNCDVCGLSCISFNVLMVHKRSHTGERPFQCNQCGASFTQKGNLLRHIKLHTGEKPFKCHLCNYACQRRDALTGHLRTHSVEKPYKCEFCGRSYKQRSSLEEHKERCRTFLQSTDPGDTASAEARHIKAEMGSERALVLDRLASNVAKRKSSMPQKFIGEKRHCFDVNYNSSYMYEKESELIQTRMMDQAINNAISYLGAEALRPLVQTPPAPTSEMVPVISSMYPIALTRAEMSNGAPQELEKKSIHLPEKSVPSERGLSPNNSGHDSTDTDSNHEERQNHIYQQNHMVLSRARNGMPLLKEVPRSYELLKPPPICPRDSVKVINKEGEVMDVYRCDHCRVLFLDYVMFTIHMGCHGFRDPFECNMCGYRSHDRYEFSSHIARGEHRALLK
target,test,system,conditions,remaining protein
"Eukaryotic peptide chain release factor GTP-binding subunit ERF3A (GSPT1, Homo sapiens, UniProt P15170)",HiBiT,HEK293,"0.0005081 µM, 6 h",108%
CRBN/Zinc finger protein Helios,flow cytometry,primary human regulatory T cells,"0.0001524 µM, 6 h",104%
DNA-binding protein Ikaros,HiBiT,HEK293,1.111 µM,100% and 108%
DNA-binding protein Ikaros,HiBiT,HEK293,0.0001694 µM,94.1% and 83.6%
CSNK1A1,HiBiT,HEK293,"0.001524 µM, 6 h",90%
Zinc finger protein Aiolos,HiBiT,HEK293,"1.111 µM, 6 h",85%
"Zinc finger protein Eos (IKZF4, Homo sapiens, UniProt Q9H2S9)",HiBiT,HEK293,"1 µM, 6 h",114%
"Sal-like protein 4 (SALL4, Homo sapiens, UniProt Q9UJQ4)",HiBiT,HEK293,"0.0001694 µM, 6 h",87.2%
CSNK1A1,HiBiT,HEK293 HiBiT-CK1α,370.37 nM,84.9% and 92.2%
CRBN/Zinc finger protein Helios,flow cytometry,primary human regulatory T cells,"1 µM, 6 h",46.5%
Zinc finger protein Aiolos,HiBiT,HEK293,"10 µM, 6 h",79.8%
DNA-binding protein Ikaros,HiBiT,HEK293,"10 µM, 6 h",95.5%

# Sample 2 — effect on: enzyme activity; action: inhibitor; tested at: 0.5 µM; relative to: control
# Compound: O=C1Cc2c([nH]c3ccc([N+](=O)[O-])cc23)-c2ccccc2N1
target,remaining activity
"G protein-coupled receptor kinase 5 (GRK5, Homo sapiens, UniProt P34947)",107%
"Proto-oncogene tyrosine-protein kinase receptor Ret (RET, Homo sapiens, UniProt P07949)",81.6%
"Dual specificity tyrosine-phosphorylation-regulated kinase 4 (DYRK4, Homo sapiens, UniProt Q9NR20)",106%
"STE20-like serine/threonine-protein kinase (SLK, Homo sapiens, UniProt Q9H2G2)",96.2%
"Casein kinase II subunit alpha' (CSNK2A2, Homo sapiens, UniProt P19784)",64.4%
"Protein-tyrosine kinase 2-beta (PTK2B, Homo sapiens, UniProt Q14289)",82.9%
"Serine/threonine-protein kinase BRSK1 (BRSK1, Homo sapiens, UniProt Q8TDC3)",39.7%
"Aurora kinase A (AURKA, Homo sapiens, UniProt O14965)",96%
"Serine/threonine-protein kinase N2 (PKN2, Homo sapiens, UniProt Q16513)",74.5%
"NT-3 growth factor receptor (NTRK3, Homo sapiens, UniProt Q16288)",63.4%
"Mitogen-activated protein kinase kinase kinase 2 (MAP3K2, Homo sapiens, UniProt Q9Y2U5)",78%
"Rho-associated protein kinase 2 (ROCK2, Homo sapiens, UniProt O75116)",82%
"Serine/threonine-protein kinase D1 (PRKD1, Homo sapiens, UniProt Q15139)",95.6%
"Mitogen-activated protein kinase 10 (MAPK10, Homo sapiens, UniProt P53779)",97.2%
"Mitogen-activated protein kinase kinase kinase 8 (MAP3K8, Homo sapiens, UniProt P41279)",99%
"Myotonin-protein kinase (DMPK, Homo sapiens, UniProt Q09013)",91.6%
"Proto-oncogene tyrosine-protein kinase ROS (ROS1, Homo sapiens, UniProt P08922)",80.2%
"Calcium/calmodulin-dependent protein kinase type 1G (CAMK1G, Homo sapiens, UniProt Q96NX5)",96%
"Homeodomain-interacting protein kinase 3 (HIPK3, Homo sapiens, UniProt Q9H422)",96.6%
"Serine/threonine-protein kinase Nek9 (NEK9, Homo sapiens, UniProt Q8TD19)",99.3%
"Cyclin-dependent kinase 7 (CDK7, Homo sapiens, UniProt P50613)",99.9%

# Sample 3 — cell line: mouse MPNST tumor cells; method: high-content immunofluorescence imaging; measured: nuclear SOX9; tested at: 10 µM; time: 12 h; notes: mean of 2 replicates; relative to: DMSO control; reading: higher = more nuclear SOX9
Compound,nuclear SOX9 intensity
CC(C)c1ccc2oc3nc(N)c(C(=O)O)cc3c(=O)c2c1,105 % of DMSO and 95.7 % of DMSO
COC(=O)[C@H](c1ccccc1Cl)N1CCc2sccc2C1,114 % of DMSO and 112 % of DMSO
COC(=O)Nc1nc2cc(C(=O)c3ccc(F)cc3)ccc2[nH]1,210 % of DMSO
O=CN1CCC(C(=O)NCCN2CCC(=C3c4ccccc4C=Cc4ccccc43)CC2)CC1,111 % of DMSO
Cc1coc2c1C(=O)C(=O)c1c-2ccc2c(C)cccc12,83.8 % of DMSO
CCCN(CCC)C(=O)C(CCC(=O)O)NC(=O)c1ccccc1 (centres unmarked),100 % of DMSO
Cc1cccc(S(=O)(=O)N(C)[C@H](C)CCN2CCC(C)CC2)c1,122 % of DMSO
Cc1c(C)c(NCC(=O)N(C)C2CCN(Cc3ccc(C(N)=O)cc3)CC2)c(C)c(C)c1N,103 % of DMSO
C=C1/C(=C\C=C2/CCC[C@]3(C)[C@@H]([C@H](C)CCCC(C)C)CC[C@@H]23)C[C@@H](O)C[C@@H]1O,88.6 % of DMSO
CCN(C(=O)CO)[C@H]1CN(/C(=N\C#N)Nc2cccc(OC(F)F)c2)N=C1c1ccc(Cl)c(Cl)c1,132 % of DMSO
Nc1ncnc2c1c(-c1ccc(Oc3ccccc3)cc1)nn2C1CCCC1,129 % of DMSO
CC(=O)Oc1ccc(C(c2ccc(OC(C)=O)cc2)c2ccccn2)cc1,101 % of DMSO
O=C1CN(/N=C/c2ccc(-c3ccc([N+](=O)[O-])cc3)o2)C(=O)N1,100 % of DMSO and 86.6 % of DMSO

# Sample 4 — method: competition with immobilised ligand; tested at: 1 µM
# Structure (SMILES): CCCOc1ccc([C@@H]2[C@@H](C(=O)O)[C@H](c3ccc4c(c3)OCO4)CN2CC(=O)Nc2c(CC)cccc2CC)cc1
target,test,remaining binding [%]
"Serine/threonine-protein kinase tousled-like 1 (TLK1, Homo sapiens, UniProt Q9UKI8)",cell-free assay,77
"Cyclin-dependent kinase-like 1 (CDKL1, Homo sapiens, UniProt Q00532)",cell-free assay,77
"Tyrosine-protein kinase ABL1, non-phosphorylated (ABL1, Homo sapiens, UniProt P00519, F317I)",binding,96
"Tyrosine-protein kinase Fgr (FGR, Homo sapiens, UniProt P09769)",cell-free assay,93
"Receptor tyrosine-protein kinase erbB-2 (ERBB2, Homo sapiens, UniProt P04626)",cell-free assay,80
"MAP/microtubule affinity-regulating kinase 3 (MARK3, Homo sapiens, UniProt P27448)",cell-free assay,100
"Wee1-like protein kinase 2 (WEE2, Homo sapiens, UniProt P0C1S8)",cell-free assay,87
"Serine/threonine-protein kinase pim-1 (PIM1, Homo sapiens, UniProt P11309)",cell-free assay,89
"Receptor-interacting serine/threonine-protein kinase 2 (RIPK2, Homo sapiens, UniProt O43353)",cell-free assay,84
"Serine/threonine-protein kinase 32C (STK32C, Homo sapiens, UniProt Q86UX6)",cell-free assay,100
"Mast/stem cell growth factor receptor Kit (KIT, Homo sapiens, UniProt P10721, L576P)",cell-free assay,100
"Mitogen-activated protein kinase 3 (MAPK3, Homo sapiens, UniProt P27361)",cell-free assay,93
"3-phosphoinositide-dependent protein kinase 1 (PDPK1, Homo sapiens, UniProt O15530)",cell-free assay,100
"Serine/threonine-protein kinase Nek11 (NEK11, Homo sapiens, UniProt Q8NG66)",cell-free assay,81
"Mast/stem cell growth factor receptor Kit (KIT, Homo sapiens, UniProt P10721, T670I/V559D)",cell-free assay,100
"Insulin receptor-related protein (INSRR, Homo sapiens, UniProt P14616)",cell-free assay,100
"Serine/threonine-protein kinase PAK 3 (PAK3, Homo sapiens, UniProt O75914)",cell-free assay,77
"Uncharacterized serine/threonine-protein kinase SBK3 (SBK3, Homo sapiens, UniProt P0C264)",cell-free assay,85
"Serine/threonine-protein kinase 33 (STK33, Homo sapiens, UniProt Q9BYT3)",cell-free assay,69
"Proto-oncogene tyrosine-protein kinase receptor Ret (RET, Homo sapiens, UniProt P07949, V804L)",cell-free assay,97
"Epidermal growth factor receptor (EGFR, Homo sapiens, UniProt P00533)",cell-free assay,87
"Epidermal growth factor receptor (EGFR, Homo sapiens, UniProt P00533, G719S)",cell-free assay,100

# Some of these lines once more (sample 3):
Compound,nuclear SOX9 intensity
Cc1coc2c1C(=O)C(=O)c1c-2ccc2c(C)cccc12,83.8 % of DMSO
CCCN(CCC)C(=O)C(CCC(=O)O)NC(=O)c1ccccc1 (centres unmarked),100 % of DMSO
Cc1cccc(S(=O)(=O)N(C)[C@H](C)CCN2CCC(C)CC2)c1,122 % of DMSO
Cc1c(C)c(NCC(=O)N(C)C2CCN(Cc3ccc(C(N)=O)cc3)CC2)c(C)c(C)c1N,103 % of DMSO
C=C1/C(=C\C=C2/CCC[C@]3(C)[C@@H]([C@H](C)CCCC(C)C)CC[C@@H]23)C[C@@H](O)C[C@@H]1O,88.6 % of DMSO
CCN(C(=O)CO)[C@H]1CN(/C(=N\C#N)Nc2cccc(OC(F)F)c2)N=C1c1ccc(Cl)c(Cl)c1,132 % of DMSO
Nc1ncnc2c1c(-c1ccc(Oc3ccccc3)cc1)nn2C1CCCC1,129 % of DMSO
CC(=O)Oc1ccc(C(c2ccc(OC(C)=O)cc2)c2ccccn2)cc1,101 % of DMSO
O=C1CN(/N=C/c2ccc(-c3ccc([N+](=O)[O-])cc3)o2)C(=O)N1,100 % of DMSO and 86.6 % of DMSO
